Measured values collected from several papers.
Protocols differ between the studies behind these lines.
B1: UGT1A9 (Homo sapiens, UniProt O60656); chain GKLLVVPMDGSHWFTMRSVVEKLILRGHEVVVVMPEVSWQLGRSLNCTVKTYSTSYTLEDLDREFKAFAHAQWKAQVRSIYSLLMGSYNDIFDLFFSNCRSLFKDKKLVEYLKESSFDAVFLDPFDNCGLIVAKYFSLPSVVFARGILCHYLEEGAQCPAPLSYVPRILLGFSDAMTFKERVRNHIMHLEEHLLCHRFFKNALEIASEILQTPVTEYDLYSHTSIWLLRTDFVLDYPKPVMPNMIFIGGINCHQGKPLPMEFEAYINASGEHGIVVFSLGSMVSEIPEKKAMAIADALGKIPQTVLWRYTGTRPSNLANNTILVKWLPQNDLLGHPMTRAFITHAGSHGVYESICNGVPMVMMPLFGDQMDNAKRMETKGAGVTLNVLEMTSEDLENALKAVINDKSYKENIMRLSSLHKDRPVEPLDLAVFWVEFVMRHKGAPHLRPAAHDLTWYQYHSLDVIGFLLAVVLTVAFITFKCCAYGYRKCLGKKGRVKKAHKSKTH

Molecule = CCCCCCC#CC(=O)OC; tested on = cysteine peptide Ac-RFAACAA-COOH; assay = DPRA RapidFire-MS/MS; setting = 24 h, pH 7.5, added: 5.0 µM cysteine peptide; quantity = maximal peptide depletion; result = -40%
Molecule = SIYNFEKL; tested on = OT-I CD8+ T cells; system = peptide; setting = primed 5 d, OVA257 100 ng/mL restimulation, added: no TGF-beta1; quantity = IFN-gamma single producers; result = 0.27%
Molecule = IINFEKE; tested on = ERAP1 human wild type; assay = activator; system = peptide; setting = 100 µM, pH 8.0, 27 °C, added: L-AMC substrate; quantity = Hill coefficient; result = 2.4
Molecule = CC(C)(N)C(=O)O; tested on = Ehrlich ascites cells, mouse; assay = substrate binding to free carrier; setting = equilibrium model K3; quantity = Kd; result = 6 mM
Molecule = C[C@H]1c2cccc(O)c2C(=O)C2=C(O)[C@]3(O)C(=O)C(C(N)=O)=C(O)[C@@H](N(C)C)[C@@H]3[C@@H](O)[C@@H]21; tested on = Staphylococcus aureus; assay = checkerboard; system = ATCC 25923; setting = added: magainin II; quantity = FIC index; result = 1
Molecule = IINFEKL; tested on = ERAP1 human L734R; assay = activator; system = peptide; setting = 100 µM, pH 8.0, 27 °C, added: L-AMC substrate; quantity = Hill coefficient; result = 1.6
Molecule = CCC/C=C/C=O; tested on = cysteine peptide Ac-RFAACAA-COOH; assay = peptide depletion, DPRA RapidFire-MS/MS; setting = 24 h, pH 7.5, room temperature, added: 5.0 µM cysteine peptide; quantity = IC50; result = 55.8 µM
Molecule = B1 (UGT1A9); tested on = O=c1cc(-c2cccc(O)c2)oc2ccccc12; assay = steady-state kinetics; setting = pH 7.4, 37 °C; quantity = Vmax; result = 0.000926 µmol/min/mg
Molecule = OCC(O)CO; tested on = cysteine peptide Ac-RFAACAA-COOH; assay = peptide depletion, DPRA RapidFire-MS/MS; setting = 24 h, pH 7.5, room temperature, added: 5.0 µM cysteine peptide; quantity = IC50; result = inactive
Molecule = SIIVFEKL; tested on = OT-I CD8+ T cells; assay = refers to: IL-2, IFN-gamma, TNF-alpha; system = peptide; setting = primed 5 d, OVA257 100 ng/mL restimulation, added: 20 ng/mL TGF-beta1 from day 2; quantity = double cytokine producers; result = 8.19%

For quick reference, copied from above:
Molecule = IINFEKE; tested on = ERAP1 human wild type; assay = activator; system = peptide; setting = 100 µM, pH 8.0, 27 °C, added: L-AMC substrate; quantity = Hill coefficient; result = 2.4
